Experimental data gathered from unrelated publications.
Each line is one published result; not all experiments were run side by side. Values joined by “and” are separate records of one study, mostly repeats; a detail may differ.

CC(=O)N[C@H]1[C@H](Oc2ccc(C[C@H](NC(=O)CN)C(=O)N[C@@H](CCC(=O)O)C(=O)N[C@H](C(=O)N[C@@H](Cc3c[nH]cn3)C(=O)N[C@@H](Cc3c[nH]cn3)C(=O)N[C@@H](CCC(N)=O)C(=O)N[C@@H](CCCCN)C(=O)N[C@@H](CC(C)C)C(=O)N[C@H](C(=O)N[C@@H](Cc3ccccc3)C(=O)N[C@@H](Cc3ccccc3)C(=O)N[C@@H](C)C(N)=O)C(C)C)C(C)C)cc2)O[C@H](CO)[C@H](O)[C@@H]1O
viability (SH-SY5Y; CCK-8; 25 µM, 24 h; reference: untreated): 95.8% and 93% and 103% and 92.9%

NC(=S)N/N=C/c1ccc(OCc2ccccc2)cc1
viability (IMR-32; MTT; 100 µg/mL, 24 h; reference: untreated control): 73.8%

CC(=O)N[C@@H](Cc1c[nH]c2ccccc12)C(=O)NCCCCCCCCCCCC(=O)NCCCC[C@@H]1NC(=O)[C@H](CCCNC(=N)N)NC(=O)[C@H](CCCNC(=N)N)NC(=O)[C@H](CCCNC(=N)N)NC(=O)[C@H](CCCNC(=N)N)NC(=O)[C@H](CCCNC(=N)N)NC1=O
viability (SK-OV-3; MTS; concentration not given, 24 h, up to 15 µM): ≥ 74%

NC(=O)N/N=C/c1ccc(OCc2cccc(F)c2)cc1
viability (IMR-32; MTT; 100 µg/mL, 24 h; reference: untreated control): 71%

CNC(=O)C[C@H](Cc1ccc(F)cc1)NC(=O)[C@@H](Cc1ccc(Cl)cc1Cl)NC(=O)[C@H](N)Cc1ccccc1[N+](=O)[O-]
viability (Huh-7-ACE2; CellTiter-Glo; 0.0122 µM, 48 h, unit not given; reference: DMSO): 1.04 and 0.89 and 0.895

CNC(=S)N/N=C/c1ccc(OCc2ccccc2)cc1
viability (IMR-32; MTT; 200 µg/mL, 24 h; reference: untreated control): 68.7%

CNC(=O)C[C@H](Cc1ccc(F)cc1)NC(=O)[C@@H](Cc1ccc(Cl)cc1Cl)NC(=O)[C@H](N)Cc1ccccc1C#N
viability (Huh-7-ACE2; CellTiter-Glo; 0.391 µM, 48 h, unit not given; reference: DMSO): 1.03 and 1.08 and 0.967

O=c1n(CCNCCOS(=O)(=O)c2ccccc2)c(=O)n(S(=O)(=O)c2ccccc2)c(=O)n1S(=O)(=O)c1ccccc1
viability (HUVEC; cell growth or viability, MTT; 100 µg/mL, 48 h): 22.5%

COc1cc(OCc2cccc(-c3ccccc3)c2C)cc(OC)c1CN1CCCC[C@H]1C(=O)O
viability (Jurkat E6-1; WST-8; 10 µM, 24 h; reference: control): 58.6%

CCOc1ccc(CN2CC[C@H]2C(=O)NC)cc1-c1cccc(C(=O)NC[C@@H]2COC(C)(C)O2)c1
viability (Huh-7-ACE2; CellTiter-Glo; 0.0061 µM, 48 h, unit not given; reference: DMSO): 1 and 0.939 and 1.04

Excerpt of the above:
NC(=O)N/N=C/c1ccc(OCc2cccc(F)c2)cc1
viability (IMR-32; MTT; 100 µg/mL, 24 h; reference: untreated control): 71%

CNC(=O)C[C@H](Cc1ccc(F)cc1)NC(=O)[C@@H](Cc1ccc(Cl)cc1Cl)NC(=O)[C@H](N)Cc1ccccc1[N+](=O)[O-]
viability (Huh-7-ACE2; CellTiter-Glo; 0.0122 µM, 48 h, unit not given; reference: DMSO): 1.04 and 0.89 and 0.895
